{"data": "Earlier results, collected from citations in different studies", "note": "Each line is one published result; not all experiments were run side by side. Numbers after ± are the reported error."}
{"SMILES": "c1ccc2c(c1)Cc1ccccc1-2", "test": "substrate", "test system": "human liver microsomes", "quantity": "Km", "value": "4.16 µM"}
{"SMILES": "CN(C)CCCN1c2ccccc2CCc2ccc(Cl)cc21", "test system": "mouse", "quantity": "fraction unbound", "value": 0.004}
{"SMILES": "O=C(O)C(F)(F)C(F)(F)C(F)(F)C(F)(F)C(F)(F)C(F)(F)C(F)(F)C(F)(F)C(F)(F)F", "target or system": "CYP1A2", "test": "inhibitor", "conditions": "Tox21 screening", "quantity": "IC50", "value": "inactive"}
{"SMILES": "CN1[C@@H]2CC[C@H]1C[C@@H](OC(=O)c1c[nH]c3ccccc13)C2", "test system": "dog", "quantity": "fraction unbound", "value": 0.047}
{"SMILES": "O=S(=O)([O-])C(F)(F)C(F)(F)C(F)(F)C(F)(F)C(F)(F)C(F)(F)F.[K+]", "target or system": "CYP1A2", "conditions": "concentration not given", "quantity": "activity", "value": "inactive"}
{"SMILES": "Cc1ccc(C(=O)c2cc(O)c(O)c([N+](=O)[O-])c2)cc1", "test system": "mouse", "quantity": "fraction unbound", "value": 0.002}
{"SMILES": "CCCCCOc1ccc(-c2ccc(-c3ccc(C(=O)N[C@H]4C[C@@H](O)[C@@H](O)NC(=O)[C@@H]5[C@@H](O)[C@@H](C)CN5C(=O)[C@H]([C@@H](C)O)NC(=O)[C@H]([C@H](O)[C@@H](O)c5ccc(O)cc5)NC(=O)[C@@H]5C[C@@H](O)CN5C(=O)[C@H]([C@@H](C)O)NC4=O)cc3)cc2)cc1", "test system": "human renal impairment moderate", "conditions": "50 mg single dose", "quantity": "volume of distribution", "value": "35.6 ± 9.4 L"}
{"SMILES": "O=C(O)[C@H](c1ccccc1)[C@H]1CCCCN1", "test system": "human, CES1 wild type, plasma", "conditions": "oral, 10 mg methylphenidate, single dose, median", "quantity": "Tmax", "value": "2.5 h"}
{"SMILES": "O=S(=O)(O)C(F)(F)C(F)(F)C(F)(F)C(F)(F)F", "target or system": "CYP1A2", "test": "inhibitor", "conditions": "Tox21 screening", "quantity": "IC50", "value": "57.6 ± 20.4 µM"}
{"note": "Excerpt of the above:"}
{"SMILES": "c1ccc2c(c1)Cc1ccccc1-2", "test": "substrate", "test system": "human liver microsomes", "quantity": "Km", "value": "4.16 µM"}
